Experimental data of several laboratories.
Every numbered part comes from another study and shows a few of its results, in no order. Changes are numbered by the printed parent chain.

Set 1 — technique: protein-binding microarray; form: double-stranded DNA, one strand shown; sample: in vitro; concentration: not given; reading: higher = stronger binding; quantity: E-score
Target: Protein C-ets-1 (ETS1, Homo sapiens, UniProt P14921, residues 1-441, full length assumed)
Setting: k-mer, scored over probes, only values ≥0.25
Target sequence (chain): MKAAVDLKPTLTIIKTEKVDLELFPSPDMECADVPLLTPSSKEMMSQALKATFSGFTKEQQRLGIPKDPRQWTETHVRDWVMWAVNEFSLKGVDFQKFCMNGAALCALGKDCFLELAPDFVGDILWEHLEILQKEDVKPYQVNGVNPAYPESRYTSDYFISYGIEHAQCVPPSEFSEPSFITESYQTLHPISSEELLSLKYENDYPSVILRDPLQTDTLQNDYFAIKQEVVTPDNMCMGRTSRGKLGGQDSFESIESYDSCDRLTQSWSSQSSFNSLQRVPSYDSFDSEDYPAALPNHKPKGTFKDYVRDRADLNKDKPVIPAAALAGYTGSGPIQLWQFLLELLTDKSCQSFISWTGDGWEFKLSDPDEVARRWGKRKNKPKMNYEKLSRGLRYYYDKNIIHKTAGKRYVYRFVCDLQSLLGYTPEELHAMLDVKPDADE
CCGGAGGC: 0.277
AGTCCGGA: 0.4
GCCCCGGA: 0.408
CCGGATCC: 0.437

Set 2 — technique: protein binding microarray; form: double-stranded DNA, one strand shown; sample: in vitro; concentration: not given; reference: not given; reading: higher = stronger binding; quantity: E-score
Target: Histone acetyltransferase KAT6A, both winged helices, GST fusion (KAT6A, Homo sapiens, UniProt Q92794, residues 1-181)
Setting: 8-mer, flanks averaged, mean of 2 arrays, mostly near background
Target sequence (chain): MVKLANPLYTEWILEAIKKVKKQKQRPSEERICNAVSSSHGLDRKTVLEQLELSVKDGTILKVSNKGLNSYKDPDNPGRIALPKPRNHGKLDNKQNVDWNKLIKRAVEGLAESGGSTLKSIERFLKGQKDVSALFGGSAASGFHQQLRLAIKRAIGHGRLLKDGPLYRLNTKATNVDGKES
GCCACAGA: -0.0836
CTCCGCTA: 0.194
AGGTTACA: 0.00846
AACAACAT: -0.0728
TACCGAGA: -0.0225
ATCGCGCC: 0.314

Set 3 — target: CCND2, cyclin fold, Cln2 fusion (human); technique: yeast growth competition, sequencing; sample: yeast; setting: weak parent motif; reference: not given; reading: higher = stronger binding; quantity: normalised enrichment score
Starting sequence: BRCA2 docking peptide (human); PSIKRNLLNEFDR; partner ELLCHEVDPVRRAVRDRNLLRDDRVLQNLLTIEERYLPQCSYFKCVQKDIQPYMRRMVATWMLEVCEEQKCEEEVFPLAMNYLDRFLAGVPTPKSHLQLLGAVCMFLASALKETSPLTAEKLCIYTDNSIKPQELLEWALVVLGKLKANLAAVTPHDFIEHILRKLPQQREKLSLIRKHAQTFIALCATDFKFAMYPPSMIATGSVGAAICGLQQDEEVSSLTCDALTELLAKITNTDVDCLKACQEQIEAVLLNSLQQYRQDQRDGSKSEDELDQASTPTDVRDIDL
R13F: -0.278
P1V: 0.175
L8K: 0.482

Mixed results
PhoQ, residues 284 288 289 292 302 303 HSSMNL  fold induction (PhoP, residues 12 14 15 18 19 NIMAP (Escherichia coli, UniProt P23836); Sort-seq, measured: YFP reporter; E. coli; PhoQ-PhoP variant library, with: 10 µM Mg2+; reference: high Mg2+ state, higher = stronger signaling): 0.77

Some of these lines once more (mixed results):
PhoQ, residues 284 288 289 292 302 303 HSSMNL  fold induction (PhoP, residues 12 14 15 18 19 NIMAP (Escherichia coli, UniProt P23836); Sort-seq, measured: YFP reporter; E. coli; PhoQ-PhoP variant library, with: 10 µM Mg2+; reference: high Mg2+ state, higher = stronger signaling): 0.77
